Assay results pooled from the literature.
Every numbered part comes from another study and shows a few of its results, in no order.

Set 1 — technique: protein-binding microarray; molecule type: hairpin DNA; sample: in vitro; concentration: not given; baseline: not given; direction: higher = stronger binding; measurement: median fluorescence
Target: Interferon regulatory factor 1, DNA-binding domain (IRF1, Homo sapiens, UniProt P10914, residues 1-114)
Setting: whole hairpin DNA, median over replicate spots
Construct (chain): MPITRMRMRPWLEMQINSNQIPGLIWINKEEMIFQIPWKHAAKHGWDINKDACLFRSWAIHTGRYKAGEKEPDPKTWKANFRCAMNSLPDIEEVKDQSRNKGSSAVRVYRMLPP
GAGGCCCCAAAGTGAAACGCCTCCTGGCGTTTCACTTTGGGGCCTCACAC: 1100 a.u.
GAGGCCCGACGGTGAAACGCCTCCTGGCGTTTCACCGTCGGGCCTCACAC (5mC at 36): 500 a.u.
GAGGCCCTAAAGCGAAACGCCTCCTGGCGTTTCGCTTTAGGGCCTCACAC: 860 a.u.
GAGGCCCGAAAGCGAAACGCCTCCTGGCGTTTCGCTTTCGGGCCTCACAC (5mC at 7 13 33 39): 712 a.u.
GAGGCCCGAAAGCGAAACGCCTCCTGGCGTTTCGCTTTCGGGCCTCACAC (5mC at 18): 1870 a.u.
GAGGCCCCGAAGCGAAACGCCTCCTGGCGTTTCGCTTCGGGGCCTCACAC (5mC at 8 38): 588 a.u.
GAGGCCCGAGAGTGAAACGCCTCCTGGCGTTTCACTCTCGGGCCTCACAC (5mC at 37): 538 a.u.
GAGGCCCGAAAGAGAAACGCCTCCTGGCGTTTCTCTTTCGGGCCTCACAC: 734 a.u.
GAGGCCCGAAAGCGAAACGCCTCCTGGCGTTTCGCTTTCGGGCCTCACAC (5mC at 7 13 39): 818 a.u.
GAGGCCCGAAAGCGAACGGCCTCCTGGCCGTTCGCTTTCGGGCCTCACAC (5mC at 17 29): 528 a.u.
GAGGCCCGAAAGCCGAACGCCTCCTGGCGTTCGGCTTTCGGGCCTCACAC (5mC at 14): 513 a.u.
GAGGCCCGAAAGTGACGCGCCTCCTGGCGCGTCACTTTCGGGCCTCACAC (5mC at 16): 552 a.u.
GAGGCCCGAGAGTGAAACGCCTCCTGGCGTTTCACTCTCGGGCCTCACAC: 542 a.u.
GAGGCCCGAATGTGAAACGCCTCCTGGCGTTTCACATTCGGGCCTCACAC: 596 a.u.
GAGGCCCGAAAGCGAAACGCCTCCTGGCGTTTCGCTTTCGGGCCTCACAC (5mC at 7 13): 990 a.u.
GAGGCCCGAAAGTGACACGCCTCCTGGCGTGTCACTTTCGGGCCTCACAC (5mC at 16): 526 a.u.

Set 2 — technique: RNA Bind-n-Seq; molecule type: RNA; sample: in vitro; concentration: 365 nM; baseline: no-protein control; direction: higher = stronger binding; measurement: RBNS enrichment (R)
Target: RNA binding protein fox-1 homolog 2, RRM domain, GST-SBP tag (RBFOX2, Homo sapiens, UniProt O43251-10, residues 100-194)
Setting: natural RNA segment, single round, ends assumed
All sequences stand within: GGGAGUUCUACAGUCCGACGAUC … UGGAAUUCUCGGGUGCCAA
Residues (chain): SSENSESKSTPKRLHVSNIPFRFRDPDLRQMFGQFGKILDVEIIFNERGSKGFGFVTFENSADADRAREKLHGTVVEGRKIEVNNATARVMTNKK
UUCUUGGUCCUAAGGUUCAUAGUUGAGGCCUUCUGUUCCAGCCUUAUGCUCCCAUCUCAGAGUUCAACUCUCAUCUCAAGAUCAUGGCCUUGCCCUUGGACUCAUCCUCA: 0.474
CUUGUGGCCUUUAGGACAGUGCUUAGCACUGUGCAGCUGGGACUGUCCCUGGCAAGUGCCUGGUAAAGGACACCGAGGCUGCUGAGCUCUUCCAGCAUGGAGGGUACCAU: 8.41
UCAGUGGUAGAGUGCUUGCCUGAUAUACAGGAAGCCUCAGUUUAAUCCUAAAUCCCAUUUCAAAAAUAUACUUAUCAUUGGAAUUUAUCUCCCAUUUUAACCACUUUUAG: 0.5
CUGGCUUCUUCCAGAGACAUGGGCUGUGUUAUUGGAGUCGUGGGCCUCUUCACUUCCCCGGCACCCUUGUAUCCCCACAGCAGUACUGAGGAGCACGGACGCCUCUGUGA: 0.859
AUUCUGAUAUAUUUAAUUUAUAAAUUUCGGACUGAUAUAAUAGAGUUUUGGAAAACUAUAAGAAAUGCUUUGUUAAUGUGUGUAUUCCUAUGUAAAACACAUGGCUUUUC: 0.82
UUCUAUUUCUUGUCAUUACCAAGCCAAUUACUUUUGCCAAAUUUUUCUGUGAUCUGCCCUGAUUAAGAUGAAUUGUGAAAUUUACAUCAAGCAAUUAUCAAAGCGGGCUG: 0.469
UUAUCACCAAACAAUAUGUUAAGUGGCUUUCCUUGGCAUCUACAGAGAAAACAUUCUAUAGCCCUCCUUCCUAGGUGUUACCAUUCACUGAAUCUUCUCUCAGAGGGAGA: 0.51
GAGCCCUGCUCCUUGUGGGCGCUCACACUGCCCCCGGAGCCUGCUGGGAGUGGGGCCAGCCGUGGACAGCUGAGGUUGGGGUCAAUGCCUCCUGGGCACCCUUGCCUCGC: 0.98
AGCCUGGCCAUCCCCAAGCCUUCAACAGAAGCUGUGCUGCCACGGCAGGCCCAGGCCAGCCAGUGCCCGAGGCCAGGAAGGCCGGGCCGUGGAGGUCCUGUCCACAGCUG: 0.338
CAGGCCCUCAUCUGAGGUAAGAAUGUACAUCAGCUGGCAGCCCCAAGCAAGUGGCUGCAGGGACACUGAUGCCACAGCUCCUGGGCCGGCCCUCACAUCUGAAACUGGUU: 0.758
UAUAAAAAAAUUGUUGUUUACUAUGGAAUUAGUAUUACAUUUUGAGGUAAACAAAAGAAUUUGUAUUGCUUGAUAAAUAUUAGCUUGUAAAUUUAAAGUUUCUUUACUUC: 0.818
UCUCUUGAUGUCCCUGGAGAGCUGAGGUCGAGACCCCAUUCAUGCAGGAGGAGGAAGAAGGAAGUGUCCAGUCACAUCCUUAGUUCUCAGAGGACUUUAUUUUCCUCUCU: 0.385

Set 3 — technique: universal PBM; molecule type: double-stranded DNA, one strand shown; sample: in vitro; concentration: not given; direction: higher = stronger binding; measurement: E-score
Target: Sal-like protein 4, full length isoform B (SALL4, Homo sapiens, UniProt Q9UJQ4-2, residues 1-616)
Setting: 8-mer, flanks averaged, mean of replicates
Target sequence (chain): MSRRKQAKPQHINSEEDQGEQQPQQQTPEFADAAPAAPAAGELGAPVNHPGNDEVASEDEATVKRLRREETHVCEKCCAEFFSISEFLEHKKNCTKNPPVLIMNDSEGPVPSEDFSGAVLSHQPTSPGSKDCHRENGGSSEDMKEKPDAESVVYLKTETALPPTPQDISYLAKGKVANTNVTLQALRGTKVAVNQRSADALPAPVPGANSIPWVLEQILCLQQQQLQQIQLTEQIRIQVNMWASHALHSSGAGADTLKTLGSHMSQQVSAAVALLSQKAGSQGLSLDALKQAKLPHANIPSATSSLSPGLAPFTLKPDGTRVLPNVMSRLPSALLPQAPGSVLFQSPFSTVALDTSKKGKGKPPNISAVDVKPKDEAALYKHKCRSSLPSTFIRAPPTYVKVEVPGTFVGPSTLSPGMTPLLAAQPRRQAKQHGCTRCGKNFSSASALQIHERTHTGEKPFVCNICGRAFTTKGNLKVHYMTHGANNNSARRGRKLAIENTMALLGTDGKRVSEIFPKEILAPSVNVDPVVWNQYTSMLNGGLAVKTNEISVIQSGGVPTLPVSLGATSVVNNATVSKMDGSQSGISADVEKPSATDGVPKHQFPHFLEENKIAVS
AGAACACG: -0.0488
GCTACCAC: -0.162
GACCCATC: -0.145
AACGACAT: 0.138
CCTAAAGG: -0.045
AGCCAACC: -0.132
TATCCGAA: 0.0835
GGGCATAC: -0.0183
GGCTGGCA: -0.274
AGGTATAG: 0.0598
GCCCAACA: -0.237
ACGGTGTC: -0.232
ATAGACTG: 0.082
ATAGGCCC: -0.132
AACCCCCG: -0.221
ACACGATA: 0.203
CCTGCGCG: -0.214
GAAAACAA: 0.208
CGTCGCAC: -0.263
CATCGTGA: -0.152
CCAGCAGG: -0.352
CTGTTGCA: -0.0987

Set 4 — technique: RNA Bind-n-Seq; molecule type: RNA; sample: in vitro; concentration: 200 nM; setting: whole 134-nt RNA, ends assumed; with: 150 mM KCl; baseline: input library; direction: higher = stronger binding; measurement: log2 enrichment
Target: Fragile X messenger ribonucleoprotein 1, C-terminal low-complexity region (Fmr1, Mus musculus, UniProt P35922)
All sequences stand within: GGGAGUUCUACAGUCCGACGAUC … UGGAAUUCUCGGGUGUCAAGG
AAGUCCUGUGCUACACAUCGUAUGUACCGAAUCGGGAAAGGGUUUGGGAAAAAGGGAAAGUAUUAUGUUACGCCGUUCGGAUCUGCACUU: -0.0624
GGGACGUCAGCAUCGGCAUCAAGUGUGCCCCUGGAGUGGUAGGCCCCGCCGAAGCUGACAUCGACUUCGACAUCAUCCGCAAUGACAAUG: -2
CUGUGCUACACAUCGUAUGUACCGAAUCGGGGUUUUUGGGGAAAAAGGGGAAAAAAAGGGGAAAGUAUUAUGUUACGCCGUUCGGAUCUG: -0.161
CAAGUCCUGUGCUACACAUCGUAUGUACCGAAUCGGUUUGGGGUUUGGUUUGGGGAAAGUAUUAUGUUACGCCGUUCGGAUCUGCACUUC: -0.0308
GCAGGAAGUAAAAACAAAUGGAAAUGCUUCGGAUAGUGGCAGGGGUGGCGGUUGCUAAGGAAAGGGUGGGAUGGGAGUGGGUAAAGAGUU: 0.487
CUCAAGUCCUGUGCUACACAUCGUAUGUACCGAAUCGGGGCCGGCCGGCCGGGAAAGUAUUAUGUUACGCCGUUCGGAUCUGCACUUCCA: -0.0583
UGGCCCUGGUGGCAUGCGGGGAGGAAGAGGUGGCCUCAUGGAUCGUGGUGGUCCCGGUGGAAUGCUCAGAGGUGGCCGUGGUGGAGACAG: 0.0217
UGUUGGGCUUCGAUCCCAGGUGGAUGAUGAUGCCUUCCUACAUGGACCCACGUAUCACGCCCACUCGGACCCCGGUGGACUUCUACCCCU: -0.0885
UGGGAGGUGGAUUUUGUUUAUUUUUUUAGCUCAUUUCCAGGGGUGGGAAUUUUUUUUUAAUAUGUGUCAUGAAUAAAGUUGUUUUUCAAA: 0.466
GUCCUGUGCUACACAUCGUAUGUACCGAAUCGGGUUUUUGGGUUUUUGGGGUUUUUGGGAAAGUAUUAUGUUACGCCGUUCGGAUCUGCA: 0.313
GCAGGAAGUAAAAACAAAUGGAAAUGCUUCGGAUAGUGGCAGGGGUGGGGGUUGCUAAGGAAAGGGUGGGAUGGGAGUGGGUAAUGAGUU: 0.293
GCAGGAAGUAAAAACAAAUGGAAAUGCUUCGGACAGUGGCAGGGGUGGGGGUUGCUAAGGAAAGGGUGGGAUGGGAGUGGGUAAAGAGUU: 0.111
UGGGAGGUGGAUUUUGUUUAUUUUUUUAGCGCAUUUCCAGGGGUGGGAAUUUUUUUUUAAUAUGUGUCAUGAAUAAAGUUGUUUUUGAAA: 0.352
UAACUUUAGAGGAGCAUCUGAUGGAUAUGGCAGUGGACGUGGAUUUGGGGAUGGCUAUAAUGGGUAUGGAGGAGGACCUGGAGGUGGCAA: 0.522

For quick reference, copied from above (set 3):
GACCCATC: -0.145
GGGCATAC: -0.0183
AACGACAT: 0.138
GAAAACAA: 0.208
AACCCCCG: -0.221
TATCCGAA: 0.0835
GCCCAACA: -0.237
GGCTGGCA: -0.274
ATAGGCCC: -0.132
CCAGCAGG: -0.352
CATCGTGA: -0.152
